{"data": "Measured values gathered from unrelated publications", "note": "Each numbered part is a random draw from the data of one study; scales do not carry over between parts.", "UniProt P30291, sequence (whole entry, looked up)": "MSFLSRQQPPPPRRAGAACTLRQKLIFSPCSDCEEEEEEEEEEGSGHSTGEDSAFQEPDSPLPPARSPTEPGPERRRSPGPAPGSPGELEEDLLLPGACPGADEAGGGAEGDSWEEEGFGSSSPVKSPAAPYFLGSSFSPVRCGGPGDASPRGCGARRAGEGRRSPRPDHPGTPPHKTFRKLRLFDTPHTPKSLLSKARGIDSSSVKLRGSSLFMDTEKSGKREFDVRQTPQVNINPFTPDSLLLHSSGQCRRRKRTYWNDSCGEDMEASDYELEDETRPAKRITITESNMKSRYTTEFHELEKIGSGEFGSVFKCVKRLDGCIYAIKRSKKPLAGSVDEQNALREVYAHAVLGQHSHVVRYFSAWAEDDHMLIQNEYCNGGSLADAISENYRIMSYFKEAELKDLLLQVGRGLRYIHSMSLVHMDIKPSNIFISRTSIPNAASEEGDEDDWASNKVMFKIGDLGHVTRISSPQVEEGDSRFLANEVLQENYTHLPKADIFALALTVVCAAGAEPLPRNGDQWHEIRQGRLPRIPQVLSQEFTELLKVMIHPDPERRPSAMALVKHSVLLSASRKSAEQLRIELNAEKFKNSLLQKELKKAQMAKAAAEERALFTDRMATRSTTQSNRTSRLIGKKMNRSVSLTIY", "UniProt P25100, sequence (whole entry, looked up)": "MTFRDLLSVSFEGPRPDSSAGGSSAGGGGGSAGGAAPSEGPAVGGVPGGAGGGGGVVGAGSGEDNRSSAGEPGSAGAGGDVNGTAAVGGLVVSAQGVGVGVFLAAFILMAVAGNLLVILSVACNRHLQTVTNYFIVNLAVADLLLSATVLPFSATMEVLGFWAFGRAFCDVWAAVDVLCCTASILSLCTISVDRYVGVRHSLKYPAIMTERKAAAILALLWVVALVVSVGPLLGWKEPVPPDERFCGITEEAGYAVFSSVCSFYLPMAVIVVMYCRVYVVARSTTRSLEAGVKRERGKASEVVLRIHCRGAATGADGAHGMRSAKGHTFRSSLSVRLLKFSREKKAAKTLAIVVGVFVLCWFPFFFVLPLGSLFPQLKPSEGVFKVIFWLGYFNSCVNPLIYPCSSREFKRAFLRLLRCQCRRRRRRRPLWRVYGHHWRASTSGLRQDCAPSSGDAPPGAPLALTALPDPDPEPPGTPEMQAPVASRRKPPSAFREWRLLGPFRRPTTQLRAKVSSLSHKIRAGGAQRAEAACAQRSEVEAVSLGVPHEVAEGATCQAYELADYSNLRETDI"}
{"data": "Block 1", "target": "RING finger protein unkempt homolog, zinc fingers 1-6, GST-SBP tag (UNK, Homo sapiens, UniProt Q9C0B0, residues 30-357)", "method": "RNA Bind-n-Seq", "molecule type": "RNA", "matrix": "in vitro", "tested at": "not given", "setting": "RNA with constant flanks, ends assumed", "baseline": "input RNA pool", "reading": "higher = stronger binding", "shared flanks, not repeated": "GGGAGUUCUACAGUCCGACGAUC … CAACAGAGGAUUGAGCAUCA", "Target sequence (chain)": "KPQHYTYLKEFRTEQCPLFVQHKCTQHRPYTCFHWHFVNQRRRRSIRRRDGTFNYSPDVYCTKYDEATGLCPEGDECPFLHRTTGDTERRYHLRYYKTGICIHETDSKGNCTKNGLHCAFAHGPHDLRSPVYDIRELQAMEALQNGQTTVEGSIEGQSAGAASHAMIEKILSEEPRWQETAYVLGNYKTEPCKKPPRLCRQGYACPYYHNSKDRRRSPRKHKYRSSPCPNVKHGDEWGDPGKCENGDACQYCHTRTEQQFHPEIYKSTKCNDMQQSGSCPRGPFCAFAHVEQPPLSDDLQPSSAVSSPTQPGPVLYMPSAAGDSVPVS"}
{"Sequence": "CUCAUUCUUUCCUUGGCGUGUCUGAGUGUCCUCUGUCCUCUGGUUAUCCGUGCCUUGGUCCUCCGGGAAGAGAGCUGUGGUAGGGUAUGAAGAUGGUACCAUCAGGAUCUGGGACCUCAA", "bound/input enrichment [ratio]": 0.174}
{"Sequence": "CAGAUGCUUGUGACCACACCAGAAAAAUGGGAUGUAGUGACAAGAAAGAGUGUUGGGGAUGCCGCUCUUUCCCAGAUUGUAAGGCUCCUUAUUCUUGAUGAAGUUCAUUUGCUGCAUGAA", "bound/input enrichment [ratio]": 0.205}
{"Sequence": "UCUGAGGAAAGGAGACCCUCUCCCAAGGAGUCCAAGGAGGCAGAUGUGGCCACAGUCCGUUCCGGGGAAAAAAGGAGUCACCAUCUAGCUCACUACAGGGCUUCAGAAGAAGAACCUGAA", "bound/input enrichment [ratio]": 0.096}
{"Sequence": "UAUGCCUUCACCAGCUAUGGCAUUAGCCCACAGGCCAAGAUAACUUAUAAUAUCAAAAUGAACCGAAGAAAAUGUGUUCACUGGAAACUGGCUGUUGAGCCCCUCCAAUGGGAGCUGAGG", "bound/input enrichment [ratio]": 0.336}
{"Sequence": "AAGAAUAUUCGCUUUCCACUGAUGACACCACAGGAUCUCAUCAACUAUGUGCAGACAGCCGAUUUCAUGAGAACAGACAAUACCUGUGUGAAUUUACUUUUGGAAGCAAGCAAUUACCAA", "bound/input enrichment [ratio]": 0.191}
{"Sequence": "GCCGGAGAUGCCCUGGAUGGCGGCUUUCAGGCGCGGUGUGAGAAGAGCCCUUUCGACCAGCCCGCUUUUAUCGAAGAGCUGUUUUCGCUGAUGGUUGUCAAUCGACUGACCGAAGAGCUC", "bound/input enrichment [ratio]": 0.178}
{"Sequence": "GCUAUGCAGGCUUUGACUCUUCUAGGAGCAUGUGUAUCAAACUGUGGCAAAAUUUUUCAUUCCGAAGUAUGUUCAAGAGAUUUUGCUAGUGAAGUAAGCAACGUAUUAAAUAAGGGUCAU", "bound/input enrichment [ratio]": 0.56}
{"Sequence": "CCUCCUUCCCCCCACCCAAUCCUUUUUUUUUUCUUUUUUGCUUUUCUUUUCUUUUUUUUCCGUUUUUAUUUACUUUACCUAGUAUGCCUUUUUUUAGUUGCUUCUCAAGUCAGAAAACUU", "bound/input enrichment [ratio]": 41.2}
{"data": "Block 2", "target": "Centromere-binding protein 1, full length, His-tagged (CBF1, Saccharomyces cerevisiae, UniProt P17106, residues 1-351)", "method": "competition protein-binding microarray", "molecule type": "double-stranded DNA, one strand shown", "matrix": "in vitro", "tested at": "2 µM", "setting": "whole 60-bp probe, lowest competitor level", "added": "Pho4 competitor, 0.05 µM", "reading": "higher = stronger binding", "shared flanks, not repeated": "… GTCTTGATTCGCTTGACGCTGCTG", "UniProt P17106, sequence (whole entry, looked up)": "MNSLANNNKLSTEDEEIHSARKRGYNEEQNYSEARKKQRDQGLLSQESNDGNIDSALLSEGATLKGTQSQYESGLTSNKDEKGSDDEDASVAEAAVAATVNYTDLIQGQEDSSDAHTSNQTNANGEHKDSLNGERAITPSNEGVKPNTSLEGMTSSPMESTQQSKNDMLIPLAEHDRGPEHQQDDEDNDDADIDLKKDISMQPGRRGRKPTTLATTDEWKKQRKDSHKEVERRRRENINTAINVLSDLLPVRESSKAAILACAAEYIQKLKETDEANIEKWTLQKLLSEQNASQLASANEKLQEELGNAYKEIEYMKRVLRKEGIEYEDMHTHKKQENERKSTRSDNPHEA"}
{"Sequence": "GGAGACACTAATAAGCACGTGAGGGTTTTTGGACAA", "fluorescence intensity": "2530 a.u."}
{"Sequence": "ATGGCATCTTGCGGGAACGTGCAAAAAAGCTCAATG", "fluorescence intensity": "96.4 a.u."}
{"Sequence": "CCTTCCGCCAAGGAGCACATGCGGCCCACTAAAACT", "fluorescence intensity": "84.9 a.u."}
{"Sequence": "CTTCTGTAAATTTGTCACTATACTTGACGCGCCCCG", "fluorescence intensity": "92.6 a.u."}
{"Sequence": "GTACTAATTACACTGCAAGTGTGCCTATTCTTCCTT", "fluorescence intensity": "87.6 a.u."}
{"Sequence": "ATCTTTCCACCCTGGCACGTGTTTCTTGTACATTTG", "fluorescence intensity": "2310 a.u."}
{"Sequence": "GGCTCGCTAGGCGGCTACATGACAAAATGCCCAAGT", "fluorescence intensity": "54.1 a.u."}
{"Sequence": "GGCTTGCAACTCCGTCACATGAGGTATGGGGGACAT", "fluorescence intensity": "250 a.u."}
{"data": "Single results of other studies"}
{"SMILES": "CN(C)C(=O)Cn1cc(-c2nc(C3(c4ccc(-c5cnc(N)nc5)cc4)CC3)no2)cn1", "target": "Alpha-1D adrenergic receptor (ADRA1D, Homo sapiens, UniProt P25100)", "effect on": "cell-free assay", "tested at": "10 µM", "endpoint": "inhibition", "result": "-15.4%"}
{"SMILES": "CN(C)S(=O)(=O)c1ccc2c(c1)/C(=C/c1cc3c([nH]1)CCCC3)C(=O)N2", "target": "Wee1-like protein kinase (WEE1, Homo sapiens, UniProt P30291)", "effect on": "enzyme activity", "action": "inhibitor", "tested at": "0.5 µM", "baseline": "control", "endpoint": "remaining activity", "result": "94.5%"}
{"note": "Excerpt of the above (block 2):"}
{"Sequence": "GGAGACACTAATAAGCACGTGAGGGTTTTTGGACAA", "fluorescence intensity": "2530 a.u."}
{"Sequence": "ATGGCATCTTGCGGGAACGTGCAAAAAAGCTCAATG", "fluorescence intensity": "96.4 a.u."}
